Experimental data gathered from unrelated publications.
Lines come from different studies, so protocols differ. ± gives the spread as reported. In brackets after ≈: the same amount, converted by molar mass.

The remaining compound of `CC[C@H](C)C(=O)O[C@H]1C[C@@H](C)C=C2C=C[C@H](C)[C@H](CC[C@@H]3C[C@@H](O)CC(=O)O3)[C@H]21` is reported as 92.3% (dog, Beagle, both sexes, whole blood; 5 µM, 30 min).
The Cmax of `COc1ncc(-c2nc3c(n2C(C)C)[C@H](c2ccc(Cl)cc2)N(c2cc(Cl)cn(C)c2=O)C3=O)c(OC)n1` is reported as 176 ng/mL (LC-MS/MS; human, plasma; oral, 20 mg, cycle 1 day 14, low-dose arm).
`N#Cc1ccc2c(c1)[C@H]1CCCN(C(=O)c3ccc4[nH]cnc4c3)[C@H]1C2` has an androstenedione level of 6.5 nmol/L (human, female; 10 mg, day 15).
For `O=[N+]([O-])c1cn2c(n1)OC[C@@H](OCc1ccc(N3CCCCC3)nc1)C2`, the aqueous solubility was 22.7 µg/mL (≈ 63.2 µM) (aqueous buffer; pH 7.4).
For `[18F]c1ccc(-c2ccc3c(c2)[nH]c2ccncc23)cn1`, the SUV was 1.12 ± 0.492 (microPET/CT imaging; APP/PS1 mouse, AD model, heart; intravenous, 10 min).
For `Cc1cc(Nc2ccc(S(F)(F)(F)(F)F)cc2)n2nc(C(C)(F)F)nc2n1`, “adverse event Pyrexia” read 55.6% (Plasmodium vivax malaria patients; oral, 600 mg).
For `CCc1cc(C(=O)NC)c2nccc(N3CCc4c(cc(Cn5ccnc5)cc4-c4cn(C)nc4C(F)(F)F)C3=O)c2c1`, “body weight change” read 12.2% (Sprague Dawley rat; oral, 100 mg/kg once daily, day 5, 7-day toxicology study; reference: day 1).
For `CNCc1ccc(-c2[nH]c3cc(F)cc4c3c2CCNC4=O)cc1`, the dizziness incidence was 33.3% (human patients; oral, 240 mg twice daily, all grades).
The radioactivity uptake of `O=C(O)CCCOc1ccc([18F])cc1-c1cc(-c2ccccc2C(F)(F)F)n(-c2ccccc2)n1` is reported as 0.85 ± 0.68 SUV (gamma counting; male ddY mice, pancreas; intravenous, 2.1 MBq, 1 min).
`COc1ccc2c(c1)CN(C(=O)CCN1CCC(Cc3ccccc3)CC1)CC[S@@+]2[O-]` — result for “diastolic blood pressure”: 78 ± 3 mmHg (telemetry; conscious dog; intravenous, 2 mg/kg, 0.5 h).
`C[C@H]1CN(C(=O)CC#N)[C@]12CCN(c1ncnc3[nH]ccc13)C2`: “participants with catheter site bruise” 12.5% (human; oral, 1.5 mg single dose).
For `CCn1ncc2c1-c1cnc(N)c(c1)O[C@H](C)c1cc(F)ccc1-c1nn(C)nc1C2`, “unbound plasma concentration” read 2000 ± 260 nM (female athymic nude mice, sample B PDX; oral, 15 mg/kg twice daily for 5.5 days, 1 h).
With `CCCn1cc(C)c2c(=O)[nH]c(-c3cc(S(=O)(=O)N4CCN(CC)CC4)ccc3OCC)nc21` the feeling hot was 16.7% (human; concentration not given, treatment-emergent adverse event).
With `CN(CCCN1CCN(C(=O)CN2CCN(CC(=O)[O-])CCN(CC(=O)[O-])CCN(CC(=O)[O-])CC2)CC1)c1ccc2nccc(C(=O)NCC(=O)N3CC(F)(F)C[C@H]3C#N)c2c1.[68Ga+3]` the uptake was 0.6 ± 0.1 %IA/g (mice, HT-1080.hFAP and HT-1080 wild-type xenografts, blood; iv, 500 pmol, 1 h post injection).
With `CC(=O)N(C)C1CCN(c2cc(F)cc(NC(=O)c3cc4c(F)ccc(C)c4[nH]3)c2)C1` (stereo not drawn) the plasma concentration was 27.6 ng/mL (CD1 mouse, plasma; oral, 50 mg/kg, 0.5 h).
`CC(C)Oc1c(NC(=O)c2ccc(NC(=O)[C@H](CC(N)=O)NC(=O)c3ccc(NC(=O)c4ccc(C#N)cc4)cc3)cc2)ccc(C(=O)Nc2ccc(C(=O)O)cc2)c1O` gave a V/F of 22.8 ± 3.1 L/kg (CD-1 mice, male, plasma; subcutaneous, 5 mg/kg single dose).
`CN(C(=O)n1cnc(-c2ccc[n+]([O-])c2)c1)[C@H]1CC[C@H](O)CC1` has a concentration of 13.7 ± 0.3 ng/g (Wistar rat, midbrain; oral, 10 mg/kg of BIA 10-2474, 24 h, single dose).
The plasma concentration of `C[C@@H]1CCO[C@H]2Cn3cc(C(=O)NCc4ccc(F)cc4F)c(=O)c(O)c3C(=O)N12` is reported as 731 ng/mL (population PK, post-hoc; children, 10 to <14 kg, plasma; oral, 15 mg dispersible tablet, 24 h, steady state, geometric mean).
`N#Cc1ccc(C(c2ccc(C#N)cc2)n2cncn2)cc1`: “unbound Cmax at steady state” 220 ± 30 nM (human patients, plasma; oral, 5 mg daily).
`CCN1/C(=C/C(C)=O)Sc2ccc(F)cc21` — result for “systolic blood pressure”: 116 ± 4 mmHg (cynomolgus monkey; oral, 10 mg/kg, 24 h post-dose).
For `CC(C)(C(=O)N1CCOc2c(C#N)cncc2C1)C(F)F`, “subjects with tachycardia TEAE” read 16.7% (human, both sexes; oral, 20 mg single dose).
`O=C(Nc1cnccc1Cl)N1CCN(Cc2ccc3c(c2)OC(F)(F)O3)CC1` has a dose-normalized AUC(0-tau) of 937 ng·h/mL (elderly men and women, plasma; oral, 100 mg once daily, day 10, normalized to 10 mg).
For `O=C(c1cccnc1-c1ccncc1)N1CCC(O)(Cc2ccccc2)CC1`, “terminal elimination rate constant” read 5.56e-05 s⁻¹ (healthy Japanese adults, plasma; oral, 100 mg twice daily, day 1).
Under “elimination rate constant”, `C[C@@H](NC(=O)N1C(=O)[C@H](Cc2ccnc(N)c2)[C@H]1C(=O)O)C1CCCCC1` is recorded as 0.000152 s⁻¹ (UPLC-MS/MS; healthy adult Chinese volunteers, plasma; continuous intravenous infusion, 1.0 mg/kg/h, day 6 of 5-day infusion, mean).
For `COc1cccc2c1C(=O)c1c(O)c3c(c(O)c1C2=O)C[C@@](O)(C(=O)CO)C[C@@H]3O[C@H]1C[C@H](N)[C@H](O)[C@H](C)O1`, the hemolysis was 24.5% (red blood cells; 20 ppm, 1 h).
For `NS(=O)(=O)c1cc(C(=O)O)c(NCc2ccco2)cc1Cl`, “subjects with adverse event” read 0% (refers to: phlebitis; healthy men; oral, 8 days, treatment-emergent, crossover trial).
With `Cc1cccc(CNC(=O)c2cn(CCNC(=O)c3ccccc3Sc3c([N+](=O)[O-])ncn3C)c3cc4c(cc3c2=O)OC(F)(F)O4)n1` the half-life was 7.4 h (Sprague-Dawley rat, male, whole blood; intramuscular, 30 mg/kg of parent drug).
`Cc1ccc(C)c(OCCCC(C)(C)C(=O)O)c1` — result for “geometric mean ratio”: 0.95 (refers to: Tmax; human subjects, plasma; oral, dose not given, with: lopinavir-ritonavir; reference: with over without lopinavir-ritonavir).
`CCCCCCOC(=O)N=C(N)c1ccc(N(Cc2nc3cc(C(=O)N(CCC(=O)OCC)c4ccccn4)ccc3n2C)N=O)cc1` has a precipitation concentration of 100 to 1000 µM (cell culture medium).
Under “relative peak deviation”, `C[C@H](CCC(=O)NCCS(=O)(=O)O)[C@H]1CC[C@H]2[C@@H]3CC[C@@H]4C[C@H](O)CC[C@]4(C)[C@H]3C[C@H](O)[C@]12C` is recorded as 213 ± 21% (human, plasma; endogenous control diurnal; reference: daily mean concentration).
`CNC(=O)c1ccc(-c2cnc3ncc(Cc4ccc5ncccc5c4)n3n2)cc1F` — result for “blood bilirubin increased dose reduction/interruption”: 0% (Japanese patients; oral, 400 mg, grade 3/4).
Under “patients with treatment-related adverse events”, `Cc1cc(-c2nnc(N)nc2-c2ccc(F)cc2)cc(Cl)n1` is recorded as 21.5% (refers to: Vomiting; human phase Ia/Ib mCRPC, immunotherapy-naive; oral, dose not given).
For `O=C(O)CCC(=O)O.[2H]C([2H])([2H])Oc1cc(C)c2[nH]ccc2c1CN1CC[C@@H](C2CC2)C[C@H]1c1ccc(C(=O)O)cc1`, “subjects with TEAE Eczema” read 0% (multiple ascending dose; healthy Chinese subjects; 50 mg twice daily).
For `C=CCN1CC(=O)N2[C@@H](Cc3ccc(O)cc3F)C(=O)N(Cc3cccc(N4CC(N5CCN(CC)CC5)C4)n3)C[C@@H]2N1C(=O)NCc1ccccc1`, “treatment-related adverse events” read 10.5% (refers to: Malaise; advanced solid tumour patients; all doses, expansion part, any grade).
`Cc1ccc([C@@H]2O[C@H](CO)[C@@H](O)[C@H](O)[C@H]2O)cc1Cc1ccc(-c2ccc(F)cc2)s1`: “urinary magnesium excretion change” 28.3 mg (Japanese type 2 diabetes patients; 25 mg, day 18, 24 h urine collection; reference: baseline).
For `C=CC(=O)NC1CCN(c2ncc3ncnc(Nc4ccc(Oc5ccc6c(c5)ncn6C)c(C)c4)c3n2)CC1`, the radioactivity recovered was 1.3% (healthy male volunteers, urine; oral solution, 60 mg, 680 h collection; reference: dose).
For `CNCCOC12CC3(C)CC(C)(CC(Cn4ncc(-c5ccc(N6CCc7cccc(C(=O)Nc8nc9ccccc9s8)c7C6)nc5C(=O)O)c4C)(C3)C1)C2`, “mean arterial pressure change” read -2% (beagle dog, male, anaesthetised; intravenous bolus, 0.03 mg/kg, 15 min; reference: baseline).
`COc1cc2nccc(Oc3ccc(NC(=O)c4cc5c(n(-c6ccccc6)c4=O)CCCC5=O)nc3)c2cc1OC` — result for “patients with decreased platelet”: 33.3% (human, relapsed/refractory AML; oral, 6 mg once daily, grade ≥3, any causality).
For `CCCCC1=NC2(CCCC2)C(=O)N1Cc1ccc(-c2ccccc2S(=O)(=O)Nc2noc(C)c2C)c(COCC)c1`, the Cmax was 4950 ng/mL (healthy adult volunteers, plasma; oral, 200 mg, single dose, fed, crushed tablet).

Repeated from above:
With `Cc1cccc(CNC(=O)c2cn(CCNC(=O)c3ccccc3Sc3c([N+](=O)[O-])ncn3C)c3cc4c(cc3c2=O)OC(F)(F)O4)n1` the half-life was 7.4 h (Sprague-Dawley rat, male, whole blood; intramuscular, 30 mg/kg of parent drug).
`Cc1ccc(C)c(OCCCC(C)(C)C(=O)O)c1` — result for “geometric mean ratio”: 0.95 (refers to: Tmax; human subjects, plasma; oral, dose not given, with: lopinavir-ritonavir; reference: with over without lopinavir-ritonavir).
`CCCCCCOC(=O)N=C(N)c1ccc(N(Cc2nc3cc(C(=O)N(CCC(=O)OCC)c4ccccn4)ccc3n2C)N=O)cc1` has a precipitation concentration of 100 to 1000 µM (cell culture medium).
Under “relative peak deviation”, `C[C@H](CCC(=O)NCCS(=O)(=O)O)[C@H]1CC[C@H]2[C@@H]3CC[C@@H]4C[C@H](O)CC[C@]4(C)[C@H]3C[C@H](O)[C@]12C` is recorded as 213 ± 21% (human, plasma; endogenous control diurnal; reference: daily mean concentration).
